Results pooled from the literature.
A part holds a random share of what one study measured.

Block 1
Target: RNA binding protein fox-1 homolog 2, RRM domain, GST-SBP tag (RBFOX2, Homo sapiens, UniProt O43251-10, residues 100-194)
Method: RNA Bind-n-Seq
Molecule type: RNA
Matrix: in vitro
Tested at: 365 nM
Setting: natural RNA segment, single round, ends assumed
Reference: no-protein control
Direction: higher = stronger binding
All sequences stand within: GGGAGUUCUACAGUCCGACGAUC … UGGAAUUCUCGGGUGCCAA
Residues (chain): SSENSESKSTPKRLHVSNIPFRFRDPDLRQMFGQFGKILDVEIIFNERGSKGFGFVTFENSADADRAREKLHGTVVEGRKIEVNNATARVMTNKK
| Sequence | RBNS enrichment (R) |
| --- | --- |
| UAGUAUAUUCCUGUAAAUGUCAGUUACUGAAAAUGAGUCCAUUGUAAGUAGUUUAGCUUGUUUUUUGCAAUGCCGGCCUCAACACCACAGAGUAAAAAAAAAAAAAAAAC | 1.14 |
| ACAAGGAGAAGAAGUUUCUUGUUGCUUUACAACAGUGUGUGCUAAGUGCUGGACUUGGCCAUGGGUAGUCUGCAGCUCAAUUUAUAGAACAGUCCAAAGAGACUUUGCAA | 0.717 |
| GAAGUGUAGAUCAUUGUAUUCAGAGAUUGUAAAUGAAAAAAAUAUAGAAACUAUUUAGUUUUGGUAGAUUUUUUUUCUGACAAUGUGACCAGACUGAAUUUCCUCAUAAA | 0.513 |
| UUUAGAAACCACCUUCUAGGCGUUUUUGGAACCCUUACUGAAAUCCCUCCCCUUGUUACAGAUGGCGUAGAAGUCACAAGUCUGUUAAUUGGACUGUUGCUUCUUUGCCU | 0.388 |
| AAGUAUACCUUGUUUAUCAGUCAGUGUUGCUUAGGUUCUCACUUCUCCAGUCAUUGUAAUGUCUACAAGGAAUGCACAAUGGAGUGCUCAGAUCACUAAAAGGAGCAUCA | 0.284 |
| ACCAUGAGAACAGAAAUUACCUUGUGACAAGACAAGUGUUCUCAGUUUUCUCCUCACAUAUUGACGGUUUAUUUCCCUGGCCUCCUAGAAGGCUGAAUCCUUUUGACUCC | 0.291 |
| GUGUUUUACUGGAAAAGCUGCAGUUGAUCUCAAAUUGAGCAGCGAGCUUUCAUGCUCAGUUGGAAUCUAAUGAAAUAAAUUCUCUUAGCAUACAUUGUAAAUUUGUAUUG | 0.267 |
| CGCCUAAAGUGCAGCAGCAGCUCCUCUCAAGCUCACUCUCUAGGUCUCCAGGGUAGGAGUGUUUUUCUAGCAAGAAUCUUAGUCAGGAGUAAGCUCUGUGCGAGAGAUCU | 0.344 |

Block 2
Target: Interferon regulatory factor 5, full length, phosphomimetic (IRF5, Homo sapiens, UniProt Q13568-2, residues 1-514, K96S/S451D/S453D/S456D/S462D)
Method: protein-binding microarray
Molecule type: double-stranded DNA, one strand shown
Matrix: in vitro
Tested at: 250 nM
Setting: 60-bp whole probe
Added: salmon DNA 0.4 mg/ml
Reference: random background probes
Direction: higher = stronger binding
All sequences stand within: GCCTAGCAC … GTCTTGATTCGCTTGACGCTGCTG
| Sequence | log fluorescence [z-score] |
| --- | --- |
| TTAGATTTCAGAATCGATTAGTGCTAG | 1.52 |
| TTAGGTTTCGGTCTCGGTGAGTGCTAG | 10.1 |
| AACGAACTGGGGACTGGAGACGTGCTA | -0.233 |
| GAATGTCTTCCCCTCTCTTTGTGCTAG | 0.155 |
| TTTTTTTTTTTTTTTTTGTAGTGCTAG | 1.31 |
| GACGGACTGTTACTGCTGACGTGCTAG | -0.418 |
| GACGATTTAAGTATCGAGACGTGCTAG | 2.24 |
| TTAGGTTTCTACTATCGGTTAGTGCTA | 8.2 |
| GACGGTTTCGGACGGGGGACGTGCTAG | 4.4 |
| GACGATATCAGGTTCGAGACGTGCTAG | 0.631 |
| GACGGTCTCCTTCTCCTGAGGTGCTAG | -0.118 |

Block 3
Target: Prothrombin, mature alpha-thrombin (F2, Homo sapiens, UniProt P00734)
Method: aptamer microarray, sandwich
Molecule type: DNA with 2'F-ANA
Matrix: in vitro
Tested at: 200 nM
Setting: whole 15-mer aptamer, many near background
Added: Cy3 exosite-II aptamer, 400 nM
Direction: higher = stronger binding
Sequence: GGTTGGTGTGGTTGG
| Modification | mean fluorescence intensity [a.u.] |
| --- | --- |
| 2'F-ANA at 1 2 4 5 6 7 8 13 14 | 46.2 |
| 2'F-ANA at 1 2 3 4 5 6 7 8 10 13 14 | 49.1 |
| 2'F-ANA at 1 3 5 6 9 13 14 | 45.5 |
| 2'F-ANA at 1 2 4 5 6 7 8 11 12 13 14 15 | 52 |
| 2'F-ANA at 4 5 6 10 12 15 | 58.7 |
| 2'F-ANA at 2 3 4 5 6 11 | 77.3 |
| 2'F-ANA at 2 5 7 8 12 14 | 48.2 |
| 2'F-ANA at 1 2 7 8 12 13 14 | 74 |
| 2'F-ANA at 1 3 4 5 8 14 15 | 46.1 |
| 2'F-ANA at 2 3 6 7 10 11 | 336 |

Mixed results
| Molecule | target | test | system | setting | how to read | quantity | value |
| --- | --- | --- | --- | --- | --- | --- | --- |
| PhoQ, residues 284 288 289 292 302 303 SSYNSA | PhoP, residues 12 14 15 18 19 NHFRA (Escherichia coli, UniProt P23836) | Sort-seq, item: YFP reporter | E. coli | PhoQ-PhoP variant library, added: 10 µM Mg2+ | reference: high Mg2+ state, higher = stronger signaling | fold induction | 3.08 |
